Results pooled from the literature.
“And” joins repeats or separate records; there may be more than shown. Numbers after ± are the reported error.
PARP1: Poly [ADP-ribose] polymerase 1 (PARP1, Homo sapiens, UniProt P09874)
Chain of UniProt P09874 (whole entry, looked up): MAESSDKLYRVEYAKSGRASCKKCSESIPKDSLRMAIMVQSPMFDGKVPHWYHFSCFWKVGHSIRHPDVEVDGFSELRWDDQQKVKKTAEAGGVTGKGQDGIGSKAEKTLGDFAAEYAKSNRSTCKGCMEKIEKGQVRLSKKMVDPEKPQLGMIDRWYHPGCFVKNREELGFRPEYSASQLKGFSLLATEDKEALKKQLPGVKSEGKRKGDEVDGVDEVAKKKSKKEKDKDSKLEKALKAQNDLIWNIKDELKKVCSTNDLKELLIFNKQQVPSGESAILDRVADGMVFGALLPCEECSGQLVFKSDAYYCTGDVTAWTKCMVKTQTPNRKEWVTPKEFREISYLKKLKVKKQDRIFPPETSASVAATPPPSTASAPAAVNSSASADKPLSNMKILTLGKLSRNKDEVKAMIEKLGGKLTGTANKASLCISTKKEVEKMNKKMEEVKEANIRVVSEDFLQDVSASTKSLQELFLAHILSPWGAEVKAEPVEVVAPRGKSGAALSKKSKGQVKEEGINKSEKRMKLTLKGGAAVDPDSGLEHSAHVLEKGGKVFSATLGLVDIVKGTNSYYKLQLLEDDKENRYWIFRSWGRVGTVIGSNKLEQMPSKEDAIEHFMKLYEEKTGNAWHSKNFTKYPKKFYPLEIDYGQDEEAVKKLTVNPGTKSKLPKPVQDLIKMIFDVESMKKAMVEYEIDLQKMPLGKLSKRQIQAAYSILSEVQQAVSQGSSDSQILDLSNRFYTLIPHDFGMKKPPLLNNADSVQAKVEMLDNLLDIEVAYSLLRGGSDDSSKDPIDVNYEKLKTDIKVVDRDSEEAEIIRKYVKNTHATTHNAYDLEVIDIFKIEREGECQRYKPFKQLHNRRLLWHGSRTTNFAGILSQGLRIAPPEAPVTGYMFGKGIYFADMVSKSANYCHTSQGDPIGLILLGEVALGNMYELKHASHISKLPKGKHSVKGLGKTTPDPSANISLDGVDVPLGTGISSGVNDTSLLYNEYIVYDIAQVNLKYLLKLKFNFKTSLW
CXCR4: C-X-C chemokine receptor type 4 (CXCR4, Homo sapiens, UniProt P61073)
Chain of UniProt P61073 (whole entry, looked up): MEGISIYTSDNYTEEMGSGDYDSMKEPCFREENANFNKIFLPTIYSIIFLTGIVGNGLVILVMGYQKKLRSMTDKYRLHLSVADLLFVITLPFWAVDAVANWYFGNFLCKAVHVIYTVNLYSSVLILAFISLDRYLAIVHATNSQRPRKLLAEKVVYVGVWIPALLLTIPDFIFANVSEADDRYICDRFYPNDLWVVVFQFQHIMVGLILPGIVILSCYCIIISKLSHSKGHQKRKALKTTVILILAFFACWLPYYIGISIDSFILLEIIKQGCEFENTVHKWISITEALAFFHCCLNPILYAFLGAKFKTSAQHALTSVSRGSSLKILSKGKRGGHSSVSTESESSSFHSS
CDC7 with DBF4: Cell division cycle 7-related protein kinase, with DBF4 (CDC7, Homo sapiens, UniProt O00311)
Chain of UniProt O00311 (whole entry, looked up): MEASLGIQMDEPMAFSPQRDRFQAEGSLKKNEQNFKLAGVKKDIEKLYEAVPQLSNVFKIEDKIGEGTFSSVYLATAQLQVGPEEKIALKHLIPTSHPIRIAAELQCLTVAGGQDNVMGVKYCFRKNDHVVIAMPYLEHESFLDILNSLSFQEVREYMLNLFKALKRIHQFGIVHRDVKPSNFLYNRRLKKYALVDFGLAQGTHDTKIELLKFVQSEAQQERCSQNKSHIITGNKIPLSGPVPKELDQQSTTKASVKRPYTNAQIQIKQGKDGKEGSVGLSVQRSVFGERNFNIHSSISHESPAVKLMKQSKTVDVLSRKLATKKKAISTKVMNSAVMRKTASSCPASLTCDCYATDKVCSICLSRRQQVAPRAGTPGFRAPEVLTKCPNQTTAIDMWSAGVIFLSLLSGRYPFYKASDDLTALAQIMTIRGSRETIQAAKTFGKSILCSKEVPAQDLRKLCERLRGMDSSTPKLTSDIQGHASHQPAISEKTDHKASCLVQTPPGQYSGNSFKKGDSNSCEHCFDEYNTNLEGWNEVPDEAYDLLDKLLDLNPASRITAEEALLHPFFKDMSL
FAAH: Fatty-acid amide hydrolase 1 (FAAH, Homo sapiens, UniProt O00519)
Chain of UniProt O00519 (whole entry, looked up): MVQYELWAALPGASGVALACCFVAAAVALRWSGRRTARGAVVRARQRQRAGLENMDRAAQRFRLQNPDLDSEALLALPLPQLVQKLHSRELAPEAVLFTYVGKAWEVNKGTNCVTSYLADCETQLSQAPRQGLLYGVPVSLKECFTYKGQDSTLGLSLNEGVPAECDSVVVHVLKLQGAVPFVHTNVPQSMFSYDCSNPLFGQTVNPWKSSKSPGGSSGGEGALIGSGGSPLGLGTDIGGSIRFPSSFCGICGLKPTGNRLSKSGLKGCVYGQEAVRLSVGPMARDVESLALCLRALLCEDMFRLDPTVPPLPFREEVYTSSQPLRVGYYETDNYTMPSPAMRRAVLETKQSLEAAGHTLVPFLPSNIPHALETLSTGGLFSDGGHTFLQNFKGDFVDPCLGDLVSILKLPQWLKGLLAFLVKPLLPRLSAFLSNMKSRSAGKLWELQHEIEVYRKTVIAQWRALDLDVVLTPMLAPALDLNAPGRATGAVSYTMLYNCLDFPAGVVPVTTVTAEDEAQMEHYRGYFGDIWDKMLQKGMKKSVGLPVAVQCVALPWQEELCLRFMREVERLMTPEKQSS
CYP2D6: Cytochrome P450 2D6 (CYP2D6, Homo sapiens, UniProt P10635)
Chain of UniProt P10635 (whole entry, looked up): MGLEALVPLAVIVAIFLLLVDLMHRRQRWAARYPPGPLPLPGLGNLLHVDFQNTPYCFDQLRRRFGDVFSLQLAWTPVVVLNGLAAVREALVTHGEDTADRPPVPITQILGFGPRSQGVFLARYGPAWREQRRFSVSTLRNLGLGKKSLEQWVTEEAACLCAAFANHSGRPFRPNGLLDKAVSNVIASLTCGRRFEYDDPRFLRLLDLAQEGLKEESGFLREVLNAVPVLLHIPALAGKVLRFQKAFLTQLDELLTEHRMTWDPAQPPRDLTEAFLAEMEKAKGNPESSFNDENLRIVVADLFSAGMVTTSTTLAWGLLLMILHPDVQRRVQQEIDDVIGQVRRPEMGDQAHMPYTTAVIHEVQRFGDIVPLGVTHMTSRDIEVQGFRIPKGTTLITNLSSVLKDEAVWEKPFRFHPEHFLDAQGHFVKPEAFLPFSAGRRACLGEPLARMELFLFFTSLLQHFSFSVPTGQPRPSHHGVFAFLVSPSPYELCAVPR
Chain of UniProt P26040 (whole entry, looked up): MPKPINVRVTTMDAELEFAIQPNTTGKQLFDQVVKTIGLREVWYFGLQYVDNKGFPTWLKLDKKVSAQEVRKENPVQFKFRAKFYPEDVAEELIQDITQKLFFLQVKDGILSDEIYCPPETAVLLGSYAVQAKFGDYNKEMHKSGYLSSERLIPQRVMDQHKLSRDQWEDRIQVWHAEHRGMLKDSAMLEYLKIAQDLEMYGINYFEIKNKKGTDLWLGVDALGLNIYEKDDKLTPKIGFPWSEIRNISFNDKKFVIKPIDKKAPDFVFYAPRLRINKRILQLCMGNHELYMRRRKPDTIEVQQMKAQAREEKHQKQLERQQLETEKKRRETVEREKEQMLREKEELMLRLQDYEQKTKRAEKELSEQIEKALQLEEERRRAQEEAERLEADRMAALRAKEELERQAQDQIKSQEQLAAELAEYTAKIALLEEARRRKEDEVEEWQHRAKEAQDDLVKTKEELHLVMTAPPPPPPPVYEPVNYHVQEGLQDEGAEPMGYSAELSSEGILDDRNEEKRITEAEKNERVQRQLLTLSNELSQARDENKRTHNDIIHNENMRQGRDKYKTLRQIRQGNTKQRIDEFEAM
Chain of UniProt P06493 (whole entry, looked up): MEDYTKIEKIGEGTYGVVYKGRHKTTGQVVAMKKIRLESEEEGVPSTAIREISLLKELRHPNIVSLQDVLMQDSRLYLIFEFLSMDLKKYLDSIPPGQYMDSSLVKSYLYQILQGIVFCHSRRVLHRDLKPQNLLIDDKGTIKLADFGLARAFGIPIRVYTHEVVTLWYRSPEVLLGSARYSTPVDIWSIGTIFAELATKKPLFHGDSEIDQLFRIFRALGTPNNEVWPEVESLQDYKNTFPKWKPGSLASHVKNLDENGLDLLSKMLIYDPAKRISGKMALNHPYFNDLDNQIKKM
Chain of UniProt O60656 (whole entry, looked up): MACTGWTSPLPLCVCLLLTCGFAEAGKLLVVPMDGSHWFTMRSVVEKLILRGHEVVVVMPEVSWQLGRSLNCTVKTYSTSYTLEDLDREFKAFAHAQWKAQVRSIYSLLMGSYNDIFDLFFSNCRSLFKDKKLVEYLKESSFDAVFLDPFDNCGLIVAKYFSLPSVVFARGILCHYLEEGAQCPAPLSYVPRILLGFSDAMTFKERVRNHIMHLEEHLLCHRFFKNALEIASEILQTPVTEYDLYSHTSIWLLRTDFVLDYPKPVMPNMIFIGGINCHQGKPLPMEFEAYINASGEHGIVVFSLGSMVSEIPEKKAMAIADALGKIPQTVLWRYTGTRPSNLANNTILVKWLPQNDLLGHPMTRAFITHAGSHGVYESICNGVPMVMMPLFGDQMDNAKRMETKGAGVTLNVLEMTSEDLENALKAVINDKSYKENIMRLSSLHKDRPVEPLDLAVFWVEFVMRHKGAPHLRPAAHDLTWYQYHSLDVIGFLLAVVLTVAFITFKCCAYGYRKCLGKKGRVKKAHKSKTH
Chain of UniProt P04798 (whole entry, looked up): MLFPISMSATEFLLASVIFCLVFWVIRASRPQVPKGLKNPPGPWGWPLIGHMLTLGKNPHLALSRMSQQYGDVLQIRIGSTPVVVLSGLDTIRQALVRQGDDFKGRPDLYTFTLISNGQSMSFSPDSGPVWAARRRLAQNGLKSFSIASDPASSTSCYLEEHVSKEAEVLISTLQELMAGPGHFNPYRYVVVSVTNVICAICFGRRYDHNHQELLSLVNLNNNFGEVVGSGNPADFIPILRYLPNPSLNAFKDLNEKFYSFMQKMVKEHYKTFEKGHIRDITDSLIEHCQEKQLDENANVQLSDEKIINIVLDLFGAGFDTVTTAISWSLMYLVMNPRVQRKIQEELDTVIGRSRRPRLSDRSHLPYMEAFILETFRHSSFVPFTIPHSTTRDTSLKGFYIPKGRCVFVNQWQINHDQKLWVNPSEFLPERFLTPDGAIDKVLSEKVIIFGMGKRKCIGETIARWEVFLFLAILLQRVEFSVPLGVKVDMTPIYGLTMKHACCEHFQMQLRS

Structure (SMILES)	target	assay	system	conditions	IC50
NC(=O)c1cccc2c1O[C@H](CN1CCN(c3ncccn3)CC1)CO2	PARP1	–	–	–	> 5 µM
COc1ccc2nc(NCc3ccc(CNCCCNC4CCCCCC4)cc3)nc(NC3CCNCC3)c2c1	CXCR4	ligand displacement, radioligand	–	cell membranes	~0.01 µM and 0.0079 µM
COc1cccc2cc(-c3nnc(SCC(=O)Nc4cc([N+](=O)[O-])ccc4C)n3-c3ccccc3)oc12	fungal tyrosinase	enzyme activity, inhibitor, dopachrome absorbance	–	pH 6.8, 37 °C, together with: L-tyrosine substrate	1.53 ± 2.3 µM
COc1ccccc1C=NNc1nc2ccccc2c(=O)n1-c1ccccc1	PARP1	enzyme activity	–	–	0.046 µM
CS(=O)(=O)N1CCN(c2ccc(NC(=O)c3cccc4c(Br)cccc34)cc2)CC1	Cyclin-dependent kinase 1, with cyclin A2 (CDK1, Homo sapiens, UniProt P06493)	enzyme activity, inhibitor, ADP-Glo	–	upper-bound estimate, partial inhibition	~3.4 µM
CCCCCCCCOc1ccccc1C(=O)Nc1ccc(C(=O)OCC[N+](C)(CC)CC)cc1	Calmodulin-1, with adenylyl cyclase 8 (CALM1, Homo sapiens, UniProt P0DP23)	AC8-calmodulin interaction, NanoBiT complementation	HEK-293T	30 min pretreatment, together with: rat AC8	5.01 µM
O=c1c(-c2cc(O)c(O)c(O)c2)coc2cc(O)c(O)c(O)c12	CDC7 with DBF4	enzyme activity, inhibitor, ADP-Glo luminescence	–	together with: ATP 12.5 µM	1.15 ± 0.07 µM
COc1ccc(Cn2c(NCCNC(=N)NC(=O)c3ccc(F)cc3)nc(=O)n(Cc3ccc(F)cc3)c2=O)cc1	PROKR2 (Homo sapiens, UniProt Q8NFJ6)	ligand displacement, radioligand	–	–	1.2 µM
NC(=O)c1cccc2c1OC[C@H](CN1CCN(c3ncccn3)CC1)O2	PARP1	–	–	–	> 5 µM
CN1CCN(CCC(=O)Nc2ccc3c(c2)Sc2cccc(-c4cc(=O)cc(N5CCOCC5)o4)c2S3)CC1	PRKDC (Homo sapiens, UniProt P78527)	enzyme activity, inhibitor	–	–	9.1 µM
COc1ccc(C(=O)NC2CCCc3c2[nH]c2c(Cl)cccc32)cc1OC (centres unmarked)	Uracil nucleotide/cysteinyl leukotriene receptor, long isoform (GPR17, Homo sapiens, UniProt Q13304)	calcium mobilization, antagonist	1321N1 stably expressing GPR17	resynthesised compound	2.3 µM
O=c1c(O)c(-c2ccc(O)c(O)c2)oc2cc(O)cc(O)c12	CDC7 with DBF4	enzyme activity, inhibitor, ADP-Glo luminescence	–	together with: ATP 12.5 µM	59.7 ± 28.6 µM
CCOC(=O)CC1C(C(=O)OCC)=C(N)Oc2ccc(-c3cc(OC)cc(OC)c3)cc21 (single isomer, unassigned; (-))	ATP2A1 (Oryctolagus cuniculus, UniProt P04191)	ATPase activity, inhibitor, absorbance	–	–	13.5 µM
CNc1ccc(C(=O)OCc2ccccc2)cc1	FAAH	enzyme activity, inhibitor, fluorescence	–	with preincubation	18.2 µM
O=c1[nH]c2ccccc2n1C1CCN(CCCC(c2ccc(F)cc2)c2ccc(F)cc2)CC1	ABCC1 (Homo sapiens, UniProt P33527)	efflux, inhibitor, flow cytometry	SupT1 cells overexpressing ABCC1	together with: rhodamine B hexyl ester 500 nM	2.6 ± 2.3 µM
C[C@]12CCC(=O)C=C1CC[C@@H]1[C@@H]2[C@@H](O)C[C@]2(C=O)[C@@H](C(=O)CO)CC[C@@H]12	CatSper channel complex (Homo sapiens, UniProt Q7RTX7+Q86XQ3+Q8NEC5+Q96P56)	calcium influx, inhibitor	human sperm	pH 8.2, together with: 140 mM K+	> 10 µM
COc1cc(CN(CCN)C(=O)c2cccs2)ccc1OCc1ccccc1	Trpm8 (Rattus norvegicus, UniProt Q8R455)	ion channel activation, antagonist, aequorin calcium luminescence	CHO cells expressing receptor	together with: menthol	0.0643 ± 0.0034 µM
O=C(O)c1cc2c(C(F)(F)F)cc(-c3ccccc3)cc2n1O	LDHB (Homo sapiens, UniProt P07195)	inhibitor, NADH fluorescence	–	pyruvate competition, together with: 150 µM NADH, 200 µM pyruvate	> 200 µM
Cc1onc(-c2ccccc2)c1C(=O)N[C@@H]1C(=O)N2[C@@H]1SC(C)(C)[C@@H]2C(=O)O	mecA (Staphylococcus aureus, UniProt A0A0H2WXF8)	–	–	–	847 µM

Structure (SMILES)	target	assay	system	conditions	IC50
Cn1c(=O)c(=O)n(C)c2cc(S(=O)(=O)Nc3ccc(C(=O)O)cc3)ccc21	DPP4 (Homo sapiens, UniProt P27487)	enzyme activity, inhibitor, fluorescence	–	–	0.00074 µM
OC(c1cc(C23CC4CC(CC(C4)C2)C3)nc2c(Cl)cc(Cl)cc12)C1CCCCN1 (centres unmarked)	Ezrin (Ezr, Mus musculus, UniProt P26040)	enzyme activity, inhibitor	–	30 min, 30 °C, together with: ezrin (substrate)	8.3 µM
C[C@H](CCC(=O)O)[C@H]1CC[C@H]2[C@@H]3CC[C@@H]4C[C@H](O)CC[C@]4(C)[C@H]3CC[C@]12C	N-acyl-phosphatidylethanolamine-hydrolyzing phospholipase D (Homo sapiens, UniProt Q6IQ20)	enzyme activity, inhibitor	–	30 min, 25 °C, together with: deoxycholic acid 0.2% w/v, PED6	~68 µM
C#Cc1ccc2c(-c3ccccc3)c(C)c(=O)oc2c1	Cytochrome P450 1A1 (CYP1A1, Homo sapiens, UniProt P04798)	enzyme activity, inhibitor, fluorescence	–	6 min, pH 7.6	2.93 µM
Cc1cc(Cn2cnc3c2C[C@@H](C(=O)O)N(C(=O)C(c2ccccc2)c2ccccc2)C3)ccc1N(C)C	Type-2 angiotensin II receptor (Rattus norvegicus, UniProt P35351)	ligand displacement, radioligand	–	pH 7.4, cell membranes	0.02 µM
COC(=O)c1ccc(NC(=O)Cn2c(=S)n(-c3ccccc3)c(=O)c3ccccc32)cc1	PARP1	enzyme activity	–	–	0.0557 µM
[Mg+2]	Glutamate NMDA receptor; Grin1/Grin2a (Grin1/Grin2a, Rattus norvegicus, UniProt P35439+Q00959)	antagonist	–	–	26 µM
CCCc1cc(OC)cc(O)c1C(=O)Oc1c(OC)cc(CCC)c(C(=O)O)c1O	Histone lysine acetyltransferase CREBBP, KIX domain; with KID (Crebbp, Mus musculus, UniProt P45481)	fluorescence polarization	–	–	64 µM
CC(=O)c1cc(C(=O)N[C@@H](C)Cn2ccc(-c3ccc(C#N)c(Cl)c3)n2)[nH]n1	SLC10A1 (Homo sapiens, UniProt Q14973)	transporter uptake, inhibitor	–	–	> 10 µM
CC(C)C1=CC2=C(CC1)[C@@]1(C)CCC[C@@](C)(C(=O)O)[C@@H]1CC2	CA9 (Homo sapiens, UniProt Q16790)	enzyme activity, inhibitor, stopped-flow	–	pH 7.4	0.29 µM
COc1ccc(-c2cc(=O)c3c(OC)c([C@@H]4O[C@H](C(=O)NCc5ccc(F)cc5)[C@@H](O)[C@H](O)[C@H]4O)c(OC)cc3o2)cc1OC	GSK3B (Homo sapiens, UniProt P49841)	enzyme activity, inhibitor, ADP detection	–	–	21.7 µM
O=C(CC1Cc2ccccc2C1)N[C@H](CN1CCCC1)[C@H](O)c1ccc2c(c1)OCCO2	UGCG (Canis lupus familiaris, UniProt A0A8I3MXG6)	enzyme activity, inhibitor	MDCK homogenate	–	0.027 µM
CCCN1CCC(c2cccc(S(C)(=O)=O)c2)CC1	CYP2D6	enzyme activity, inhibitor	human, liver microsomes	4 h, pH 7.4, with preincubation	2.8 µM
Cc1nc2ccccc2n1Cc1ccc(C(=O)NO)cc1	HDAC3 (Homo sapiens, UniProt O15379)	–	–	concentration not given	10.9 µM
O=c1cc(-c2ccc(O)c(O)c2)oc2cc(O)cc(O)c12	UGT1A9 (Homo sapiens, UniProt O60656)	inhibitor	pooled human liver microsomes	no preincubation, together with: propofol	> 250 µM
O=C(NC1CCCCC1)OCc1cn(Cc2cccc(F)c2)nn1	FAAH	enzyme activity, inhibitor, fluorescence	–	cell membranes	0.18 µM
COc1ccc2nc(NCc3ccc(CNCCCNC4CCCCC4)cc3)nc(NC3CCNCC3)c2c1	CXCR4	ligand displacement, radioligand	–	cell membranes	~0.01 µM and 0.0087 µM
COc1cc2ncnc(Nc3ccc(F)c(Cl)c3)c2cc1NC(=O)/C=C/CN1CCCCC1	CYP2D6	poziotinib M2 formation, inhibitor	–	50 min, pH 7.4	0.11 µM
CC(NC(=O)c1ccccc1/N=C/c1c(O)ccc2ccccc12)c1ccccc1 (centres unmarked)	SIRT3 (Homo sapiens, UniProt Q9NTG7)	–	–	–	150 µM

Repeated from above:
Structure (SMILES)	target	assay	system	conditions	IC50
C#Cc1ccc2c(-c3ccccc3)c(C)c(=O)oc2c1	Cytochrome P450 1A1 (CYP1A1, Homo sapiens, UniProt P04798)	enzyme activity, inhibitor, fluorescence	–	6 min, pH 7.6	2.93 µM
Cc1cc(Cn2cnc3c2C[C@@H](C(=O)O)N(C(=O)C(c2ccccc2)c2ccccc2)C3)ccc1N(C)C	Type-2 angiotensin II receptor (Rattus norvegicus, UniProt P35351)	ligand displacement, radioligand	–	pH 7.4, cell membranes	0.02 µM
COC(=O)c1ccc(NC(=O)Cn2c(=S)n(-c3ccccc3)c(=O)c3ccccc32)cc1	PARP1	enzyme activity	–	–	0.0557 µM
[Mg+2]	Glutamate NMDA receptor; Grin1/Grin2a (Grin1/Grin2a, Rattus norvegicus, UniProt P35439+Q00959)	antagonist	–	–	26 µM
CCCc1cc(OC)cc(O)c1C(=O)Oc1c(OC)cc(CCC)c(C(=O)O)c1O	Histone lysine acetyltransferase CREBBP, KIX domain; with KID (Crebbp, Mus musculus, UniProt P45481)	fluorescence polarization	–	–	64 µM
CC(=O)c1cc(C(=O)N[C@@H](C)Cn2ccc(-c3ccc(C#N)c(Cl)c3)n2)[nH]n1	SLC10A1 (Homo sapiens, UniProt Q14973)	transporter uptake, inhibitor	–	–	> 10 µM
